Results from different studies.
A part holds a random share of what one study measured. “And” joins repeats or separate records; there may be more than shown.
Chain of UniProt P00519 (whole entry, unmodified, looked up): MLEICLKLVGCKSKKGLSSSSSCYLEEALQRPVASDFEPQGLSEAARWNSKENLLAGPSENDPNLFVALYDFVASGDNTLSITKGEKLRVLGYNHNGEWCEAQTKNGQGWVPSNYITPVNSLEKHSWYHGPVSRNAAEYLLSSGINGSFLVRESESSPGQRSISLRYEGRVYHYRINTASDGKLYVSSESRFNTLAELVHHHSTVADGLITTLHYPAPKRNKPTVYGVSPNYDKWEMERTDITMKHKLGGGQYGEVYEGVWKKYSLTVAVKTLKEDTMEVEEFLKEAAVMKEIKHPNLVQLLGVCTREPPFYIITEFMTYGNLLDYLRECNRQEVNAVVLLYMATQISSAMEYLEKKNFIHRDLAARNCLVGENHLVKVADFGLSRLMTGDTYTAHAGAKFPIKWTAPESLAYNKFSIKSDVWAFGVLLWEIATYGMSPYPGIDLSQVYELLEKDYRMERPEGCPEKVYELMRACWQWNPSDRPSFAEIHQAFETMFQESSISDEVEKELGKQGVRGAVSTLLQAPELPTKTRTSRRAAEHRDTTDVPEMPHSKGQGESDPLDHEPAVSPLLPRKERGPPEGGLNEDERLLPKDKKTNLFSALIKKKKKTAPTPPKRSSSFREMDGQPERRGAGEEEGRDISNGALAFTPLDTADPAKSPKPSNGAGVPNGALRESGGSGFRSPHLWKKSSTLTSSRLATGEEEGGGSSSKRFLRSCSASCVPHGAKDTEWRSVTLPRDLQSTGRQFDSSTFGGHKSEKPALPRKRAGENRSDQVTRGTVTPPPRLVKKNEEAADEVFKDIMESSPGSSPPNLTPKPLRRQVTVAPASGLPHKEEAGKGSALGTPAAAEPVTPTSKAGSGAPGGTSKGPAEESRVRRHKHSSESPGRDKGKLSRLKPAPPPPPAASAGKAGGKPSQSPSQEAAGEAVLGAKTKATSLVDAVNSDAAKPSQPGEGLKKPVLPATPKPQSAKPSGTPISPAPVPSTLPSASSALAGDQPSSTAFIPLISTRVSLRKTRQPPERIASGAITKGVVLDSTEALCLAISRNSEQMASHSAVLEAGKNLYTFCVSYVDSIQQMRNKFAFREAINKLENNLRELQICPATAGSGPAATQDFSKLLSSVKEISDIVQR
Chain of UniProt P10721 (whole entry, unmodified, looked up): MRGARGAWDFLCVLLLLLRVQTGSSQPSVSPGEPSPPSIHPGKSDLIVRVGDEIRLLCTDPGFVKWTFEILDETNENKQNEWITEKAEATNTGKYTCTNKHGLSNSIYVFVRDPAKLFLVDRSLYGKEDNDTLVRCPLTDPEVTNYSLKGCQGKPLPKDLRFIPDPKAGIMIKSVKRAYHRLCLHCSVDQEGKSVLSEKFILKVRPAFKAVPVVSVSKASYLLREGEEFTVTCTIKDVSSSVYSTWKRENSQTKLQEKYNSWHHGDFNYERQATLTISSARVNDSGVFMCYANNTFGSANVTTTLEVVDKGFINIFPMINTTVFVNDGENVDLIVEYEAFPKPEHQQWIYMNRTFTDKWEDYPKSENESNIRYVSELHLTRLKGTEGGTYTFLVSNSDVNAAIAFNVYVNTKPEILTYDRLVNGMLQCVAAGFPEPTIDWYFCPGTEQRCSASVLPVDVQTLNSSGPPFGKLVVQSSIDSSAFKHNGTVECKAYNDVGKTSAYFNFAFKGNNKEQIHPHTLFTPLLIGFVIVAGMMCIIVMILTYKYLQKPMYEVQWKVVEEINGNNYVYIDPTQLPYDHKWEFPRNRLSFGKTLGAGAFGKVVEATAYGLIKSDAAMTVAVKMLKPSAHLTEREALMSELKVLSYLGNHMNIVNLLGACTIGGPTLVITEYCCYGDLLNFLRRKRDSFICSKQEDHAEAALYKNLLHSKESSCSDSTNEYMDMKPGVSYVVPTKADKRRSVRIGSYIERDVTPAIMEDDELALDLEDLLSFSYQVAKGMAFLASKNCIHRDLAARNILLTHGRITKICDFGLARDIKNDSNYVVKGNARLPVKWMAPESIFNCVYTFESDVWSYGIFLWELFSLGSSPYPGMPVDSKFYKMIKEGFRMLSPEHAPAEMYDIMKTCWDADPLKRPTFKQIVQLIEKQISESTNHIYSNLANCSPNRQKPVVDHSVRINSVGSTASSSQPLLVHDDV
Chain of UniProt Q9UIK4 (whole entry, looked up): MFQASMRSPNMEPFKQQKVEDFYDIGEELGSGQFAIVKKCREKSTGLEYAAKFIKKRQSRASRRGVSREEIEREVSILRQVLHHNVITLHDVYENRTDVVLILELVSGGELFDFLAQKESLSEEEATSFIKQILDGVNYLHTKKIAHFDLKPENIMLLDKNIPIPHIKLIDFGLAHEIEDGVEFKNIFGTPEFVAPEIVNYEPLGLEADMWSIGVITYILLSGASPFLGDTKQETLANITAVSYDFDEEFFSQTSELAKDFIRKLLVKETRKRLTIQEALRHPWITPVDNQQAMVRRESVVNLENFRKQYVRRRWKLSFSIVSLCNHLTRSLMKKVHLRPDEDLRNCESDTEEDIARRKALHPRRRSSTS
Chain of UniProt Q13233 (whole entry, looked up): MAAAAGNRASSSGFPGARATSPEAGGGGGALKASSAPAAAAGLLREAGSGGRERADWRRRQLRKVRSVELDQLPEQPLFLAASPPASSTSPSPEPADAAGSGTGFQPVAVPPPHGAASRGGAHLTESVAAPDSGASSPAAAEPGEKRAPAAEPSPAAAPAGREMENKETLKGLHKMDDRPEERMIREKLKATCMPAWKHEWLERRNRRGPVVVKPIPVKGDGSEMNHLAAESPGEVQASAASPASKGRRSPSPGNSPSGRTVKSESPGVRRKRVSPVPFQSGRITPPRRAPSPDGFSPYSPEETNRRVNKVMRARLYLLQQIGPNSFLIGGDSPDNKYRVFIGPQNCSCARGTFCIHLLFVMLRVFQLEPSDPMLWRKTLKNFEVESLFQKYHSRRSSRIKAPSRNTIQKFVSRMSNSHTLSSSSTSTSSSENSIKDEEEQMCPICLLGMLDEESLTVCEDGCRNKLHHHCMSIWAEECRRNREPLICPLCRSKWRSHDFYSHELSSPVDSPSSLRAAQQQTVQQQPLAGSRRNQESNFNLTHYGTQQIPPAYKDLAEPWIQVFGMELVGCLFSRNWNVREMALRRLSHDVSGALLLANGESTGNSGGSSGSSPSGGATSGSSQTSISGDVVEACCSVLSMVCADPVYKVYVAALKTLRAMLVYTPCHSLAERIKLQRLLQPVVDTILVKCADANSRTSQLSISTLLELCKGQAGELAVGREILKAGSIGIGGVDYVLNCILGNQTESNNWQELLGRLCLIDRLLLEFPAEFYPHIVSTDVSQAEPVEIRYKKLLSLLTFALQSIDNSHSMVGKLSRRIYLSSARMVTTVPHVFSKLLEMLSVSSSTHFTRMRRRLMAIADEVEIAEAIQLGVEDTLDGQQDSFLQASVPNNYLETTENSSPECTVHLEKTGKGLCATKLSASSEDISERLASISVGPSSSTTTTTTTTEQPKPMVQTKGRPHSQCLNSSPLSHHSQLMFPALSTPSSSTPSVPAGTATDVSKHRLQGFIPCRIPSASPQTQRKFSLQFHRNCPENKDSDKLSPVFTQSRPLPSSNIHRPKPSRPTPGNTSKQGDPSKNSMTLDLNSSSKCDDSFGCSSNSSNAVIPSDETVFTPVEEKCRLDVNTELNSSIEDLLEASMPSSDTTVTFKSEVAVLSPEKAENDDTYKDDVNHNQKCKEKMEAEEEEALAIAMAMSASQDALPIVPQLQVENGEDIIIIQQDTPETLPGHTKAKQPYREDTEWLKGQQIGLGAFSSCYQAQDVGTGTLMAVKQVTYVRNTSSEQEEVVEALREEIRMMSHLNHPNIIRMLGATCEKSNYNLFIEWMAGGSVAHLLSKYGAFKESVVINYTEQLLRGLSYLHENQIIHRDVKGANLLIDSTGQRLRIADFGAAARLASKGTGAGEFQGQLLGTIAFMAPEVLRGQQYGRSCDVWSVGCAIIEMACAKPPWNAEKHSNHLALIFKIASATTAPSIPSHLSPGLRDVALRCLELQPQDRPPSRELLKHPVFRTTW
Chain of UniProt Q9H3Y6 (whole entry, looked up): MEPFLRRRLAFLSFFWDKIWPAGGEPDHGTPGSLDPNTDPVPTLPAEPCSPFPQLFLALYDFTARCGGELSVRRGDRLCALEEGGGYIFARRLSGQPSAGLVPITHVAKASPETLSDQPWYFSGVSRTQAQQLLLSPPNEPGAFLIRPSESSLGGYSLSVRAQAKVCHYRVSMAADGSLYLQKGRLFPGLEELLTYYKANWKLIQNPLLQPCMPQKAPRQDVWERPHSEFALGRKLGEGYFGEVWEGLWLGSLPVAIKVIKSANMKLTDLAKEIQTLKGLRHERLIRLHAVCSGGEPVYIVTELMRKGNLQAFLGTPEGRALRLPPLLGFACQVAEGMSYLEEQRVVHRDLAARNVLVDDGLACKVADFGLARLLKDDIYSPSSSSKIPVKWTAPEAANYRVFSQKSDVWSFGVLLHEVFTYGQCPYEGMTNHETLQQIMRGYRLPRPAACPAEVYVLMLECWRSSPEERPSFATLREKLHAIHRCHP

Study 1
Cell line: mouse MPNST tumor cells
Technique: high-content immunofluorescence imaging
Measured: nuclear SOX9
Tested at: 10 µM
Time: 12 h
Notes: mean of 2 replicates
Relative to: DMSO control
Direction: higher = more nuclear SOX9
`CC(=O)c1ccc2c(c1)N(CCCN(C)C)c1ccccc1S2` — result for “nuclear SOX9 intensity”: 180 % of DMSO.
`COC(=O)Nc1nc2cc(C(=O)c3cccs3)ccc2[nH]1`: “nuclear SOX9 intensity” 192 % of DMSO and 203 % of DMSO.
For `O=S(=O)(NCCCCCCc1ccccc1)c1cccc2c(Cl)cccc12`, “nuclear SOX9 intensity” read 102 % of DMSO.
`Fc1ccccc1Nc1nc2nonc2nc1Nc1ccccc1F` — result for “nuclear SOX9 intensity”: 90.4 % of DMSO.
For `CC(C)C(C(=O)Nc1nccs1)c1ccc(Cl)cc1` (stereo not shown), “nuclear SOX9 intensity” read 114 % of DMSO.
`Oc1cccc(-c2nc(N3CCOCC3)c3oc4ncccc4c3n2)c1`: “nuclear SOX9 intensity” 88.4 % of DMSO.
For `C#CCN(C)CC1=Cc2ccccc2Oc2ccccc21`, “nuclear SOX9 intensity” read 96.2 % of DMSO.
For `CCOC(=O)OC(C)OC(=O)[C@@H]1N2C(=O)[C@@H](NC(=O)[C@H](N)c3ccccc3)[C@H]2SC1(C)C` (stereo partly shown), “nuclear SOX9 intensity” read 89.2 % of DMSO.
Under “nuclear SOX9 intensity”, `O=C(O)c1cc(=O)c2c(OCC(O)COc3cccc4oc(C(=O)O)cc(=O)c34)cccc2o1` is recorded as 98.6 % of DMSO.
Under “nuclear SOX9 intensity”, `CC(=O)Nc1ccc(CC(=O)O)cc1` is recorded as 96.3 % of DMSO.
Under “nuclear SOX9 intensity”, `COC1C(O)CC(=O)OC(C)CC=CC=CC(OC2CCC(N(C)C)C(C)O2)C(C)CC(CC=O)C1OC1OC(C)C(OC2CC(C)(O)C(O)C(C)O2)C(N(C)C)C1O` (stereo not shown) is recorded as 108 % of DMSO.
`Nc1ccccc1NC(=O)c1ccc(CNC(=O)OCc2cccnc2)cc1` — result for “nuclear SOX9 intensity”: 128 % of DMSO.
`Cc1cnc(C(=O)O)c[n+]1[O-]`: “nuclear SOX9 intensity” 114 % of DMSO and 81.9 % of DMSO.
For `O=C(Nc1cccc2c(=O)cc(-c3nnn[nH]3)oc12)c1ccc(OCCCCc2ccccc2)cc1`, “nuclear SOX9 intensity” read 97.6 % of DMSO.
`CN1CCN(c2cc(-c3ccccc3)nc(N)n2)CC1`: “nuclear SOX9 intensity” 120 % of DMSO.

Study 2
SMILES: C[C@H](c1cccc(C#N)c1)n1cc(Cl)cc(C(N)=O)c1=N
Technique: competition with immobilised ligand
Tested at: 1 µM
For DAPK2 (Homo sapiens, UniProt Q9UIK4); cell-free assay: remaining binding read 100%.
KIT (Homo sapiens, UniProt P10721, T670I/V559D); cell-free assay — remaining binding: 100%.
It gave 96% for remaining binding (MAST1 (Homo sapiens, UniProt Q9Y2H9); cell-free assay).
The remaining binding was 98% (Mast/stem cell growth factor receptor Kit, autoinhibited (KIT, Homo sapiens, UniProt P10721); cell-free assay).
STK33 (Homo sapiens, UniProt Q9BYT3); cell-free assay — remaining binding: 92%.
For MAP4K5 (Homo sapiens, UniProt Q9Y4K4); cell-free assay: remaining binding read 100%.
It gave 85% for remaining binding (Tyrosine-protein kinase ABL1, non-phosphorylated (ABL1, Homo sapiens, UniProt P00519, F317I); binding).
It gave 100% for remaining binding (TNIK (Homo sapiens, UniProt Q9UKE5); cell-free assay).
For PDPK1 (Homo sapiens, UniProt O15530); cell-free assay: remaining binding read 100%.
For SBK3 (Homo sapiens, UniProt P0C264); cell-free assay: remaining binding read 95%.
For PIM1 (Homo sapiens, UniProt P11309); cell-free assay: remaining binding read 100%.
SRMS (Homo sapiens, UniProt Q9H3Y6); cell-free assay — remaining binding: 75%.
For Tyrosine-protein kinase ABL1, phosphorylated (ABL1, Homo sapiens, UniProt P00519, F317L); cell-free assay: remaining binding read 83%.
The remaining binding was 90% (MAP3K1 (Homo sapiens, UniProt Q13233); cell-free assay).
It gave 97% for remaining binding (WEE2 (Homo sapiens, UniProt P0C1S8); cell-free assay).
It gave 66% for remaining binding (RIPK2 (Homo sapiens, UniProt O43353); cell-free assay).
ERBB2 (Homo sapiens, UniProt P04626); cell-free assay — remaining binding: 100%.

Study 3
Cell line: A-375
Tested at: 100 µM
Time: 18 h
With `CC(CCc1ccc(O)cc1)NCC(O)c1ccc(O)cc1` (stereo not shown) the viability was 89.2%.
For `CNC1CCCN(c2c(F)cc3c(=O)c(C(=O)O)cn(C4CC4)c3c2OC)C1` (stereo not shown), the viability was 95%.
The viability of `C=CC(N)CCC(=O)O` (stereo not shown) is reported as 92.7%.
The viability of `O=C(O)CN(CCN(CC(=O)O)CC(=O)O)CC(=O)O` is reported as 85.4%.
The viability of `O=C(C[S+]([O-])Cc1ccco1)NC/C=C\COc1cc(CN2CCCCC2)ccn1` (stereo not shown) is reported as 61.9%.
For `CN(C/C=C/C#CC(C)(C)C)Cc1cccc2ccccc12`, the viability was 39.4%.
The viability of `CN(C)CC/C=C1/c2ccccc2COc2ccc(CC(=O)O)cc21` is reported as 106%.
`CN(Cc1cnc2nc(N)nc(N)c2n1)c1ccc(C(=O)N[C@@H](CCC(=O)O)C(=O)O)cc1` gave a viability of 69.2%.
The viability of `COc1cc(NS(=O)(=O)c2ccc(N)cc2)ncn1` is reported as 96.7%.
For `CCCCCCCCCCCCCCCCOP(=O)([O-])OCC[N+](C)(C)C`, the viability was 10.8%.

Study 4
Target: Cyclin-dependent kinase 1, with cyclin B (CDK1, Homo sapiens, UniProt P06493)
Chain of UniProt P06493 (whole entry, looked up): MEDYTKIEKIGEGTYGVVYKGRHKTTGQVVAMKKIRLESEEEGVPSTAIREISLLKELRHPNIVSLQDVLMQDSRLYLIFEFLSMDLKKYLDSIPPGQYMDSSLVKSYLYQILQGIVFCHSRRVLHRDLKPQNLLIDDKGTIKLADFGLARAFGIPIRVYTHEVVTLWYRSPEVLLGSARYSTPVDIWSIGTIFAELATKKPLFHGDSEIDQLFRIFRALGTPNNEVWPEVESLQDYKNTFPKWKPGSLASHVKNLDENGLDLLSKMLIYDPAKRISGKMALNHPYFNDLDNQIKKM
Observed: enzyme activity
Action: inhibitor
Tested at: 0.5 µM
Relative to: control
For `c1ccc(-c2cnc(Nc3ccc(OCCN4CCCC4)cc3)s2)cc1`, the remaining activity was 85.1%.
`COc1cc2ncnc(Nc3ccc(O)c(Br)c3)c2cc1OC` has a remaining activity of 81.3%.
The remaining activity of `CCN(CC)CCNC(=O)c1c(C)[nH]c(/C=C2\C(=O)Nc3ccc(Cl)cc32)c1C` is reported as 109%.
For `CCN(CC)C(=O)c1ccc(Nc2nc(OCC3CCCCC3)c3[nH]cnc3n2)cc1`, the remaining activity was 62.4%.
`C[C@@H]1CCN(C(=O)CC#N)C[C@@H]1N(C)c1ncnc2[nH]ccc12` gave a remaining activity of 90.8%.
With `COc1cc2c(cc1OC)-c1[nH]nc(Nc3cccc(F)c3)c1C2` the remaining activity was 101%.
With `N#Cc1c(NC(=O)c2cccc3ccccc23)sc2c1CCCC2` the remaining activity was 111%.
For `c1ccc(-c2[nH]ncc2-c2ccnc3ccccc23)nc1`, the remaining activity was 106%.
`CN([C@@H](Cc1ccc(OS(=O)(=O)c2cccc3cnccc23)cc1)C(=O)N1CCN(c2ccccc2)CC1)S(=O)(=O)c1cccc2cnccc12` gave a remaining activity of 108%.
`CN(C)C[C@H]1CCn2c(c(C3=C(c4cn(C)c5ccccc45)C(=O)NC3=O)c3ccccc32)C1` has a remaining activity of 53.7%.
For `Nc1cccc(-c2cc3c(Oc4cccc(O)c4)ncnc3[nH]2)c1`, the remaining activity was 98.9%.
For `CCN(CC)CCNC(=O)c1c(C)[nH]c(/C=C2\C(=O)Nc3ccc(F)cc32)c1C`, the remaining activity was 103%.
For `O=C(NC(NC(=S)Nc1ccc(F)c([N+](=O)[O-])c1)C(Cl)(Cl)Cl)C(c1ccccc1)c1ccccc1` (stereo not shown), the remaining activity was 92.1%.
`O=C(Nc1cccc(Nc2nccc(Nc3cccc(C(F)(F)F)c3)n2)c1)C1CC1` gave a remaining activity of 89.3%.
The remaining activity of `N#C/C(=C\c1ccc(O)c(O)c1)C(=O)NCc1ccccc1` is reported as 96.9%.
With `CCOc1nc(NC(=O)Cc2cc(OC)ccc2OC)cc(N)c1C#N` the remaining activity was 108%.
`COc1cc2ncnc(Nc3cccc(Cl)c3)c2cc1OC` has a remaining activity of 90.3%.
With `O=c1cc(-c2cccc3c2Sc2ccccc2S3)oc(N2CCOCC2)c1` the remaining activity was 88.5%.
`Cn1nc2c3c(cccc31)C(=O)c1ccccc1-2` has a remaining activity of 108%.
With `O=C1c2ccccc2-c2n[nH]c3cccc1c23` the remaining activity was 63.4%.
With `Cc1cn(-c2cc(NC(=O)c3ccc(C)c(Nc4nccc(-c5cccnc5)n4)c3)cc(C(F)(F)F)c2)cn1` the remaining activity was 97.8%.
For `Ic1cccc(CSc2nnc(-c3ccncc3)o2)c1`, the remaining activity was 92%.
For `Cc1nc2cc3nc(-c4cccs4)cnc3cc2n1C`, the remaining activity was 96.7%.
With `O=C1C(Cl)=C(N2C(=O)CCC2=O)C(=O)c2ccccc21` the remaining activity was 118%.
The remaining activity of `Cc1cc2ncc(-c3ccccc3)nc2cc1C` is reported as 108%.
